Published values gathered from unrelated publications.
A part holds a random share of what one study measured. ± marks the error that the study gave.

Set 1
Organism: SARS-CoV-2 Wuhan spike VSV pseudovirus
Read-out: pseudovirus entry
Tested at: concentration not given
Structure (SMILES) | inhibition [%]
CC(C)c1ccc(NC(=O)c2cn3c(n2)CCCC3)cc1 | 40
Cc1cccc(N2CCN(C(=O)CCCn3c(C)c4cnn(-c5ccccc5)c(=O)c4c3C)CC2)c1C | 37
CCOC(=O)C1(CCCc2ccccc2)CCN(C(=O)c2cnsn2)CC1 | 36
Cc1ccc(NC(=O)c2nc(S(=O)(=O)Cc3ccccc3)ncc2Cl)cc1C | 41
COC(=O)c1ccc(NC(=O)C2CCN(c3c(C#N)cnc4ccccc34)CC2)cc1 | 36
O=C(NCCc1csc(-c2ccccc2)n1)[C@H]1CCCN1S(=O)(=O)c1cccc2nsnc12 | 48
COc1ccc(CNCCC(Cc2ccccc2)c2ccco2)cc1 (centres unmarked) | 46

Single results of other studies
rep nsp14: Replicase polyprotein 1ab, nsp14 (rep, Severe acute respiratory syndrome coronavirus 2, UniProt P0DTD1)
rep papain-like protease: Replicase polyprotein 1ab, papain-like protease (rep, Severe acute respiratory syndrome coronavirus 2, UniProt P0DTD1)
rep nsp12 RdRp: Replicase polyprotein 1ab, nsp12 RdRp (rep, Severe acute respiratory syndrome coronavirus 2, UniProt P0DTD1)
SMILES | target | test | test system | setting | how to read | endpoint | result
CCC(CC)[C@H](NC(C)=O)[C@@H]1[C@H](O)[C@@H](C(=O)O)C[C@H]1N=C(N)N | neuraminidase (Influenza B virus, UniProt A0A1S5RAG6, N294S) |  |  |  |  | IC50 | 0.0215 ± 0.0031 µM
O=C(NC1CCN(c2ncnc3[nH]cnc23)CC1)c1cccc(S(=O)(=O)N2CCCCC2)c1 | rep nsp14 | NSP14 enzyme activity, inhibitor |  | 200 µM |  | inhibition | 82.3%
O=C(NC[C@H]1CN(c2ccc(N3CCOCC3=O)cc2)C(=O)O1)c1ccc(Cl)s1 | rep papain-like protease |  |  | concentration not given, C111S mutant | baseline: positive control | activity | 13.9%
Cc1nc2n(c(=O)c1CCN1CCC(c3noc4cc(F)ccc34)CC1)CCCC2O (centres unmarked) | rep nsp12 RdRp | binding, biolayer interferometry |  | 50 µM |  | BLI response | 0.02 nm
COc1ccc2c(O[C@@H]3C[C@H]4C(=O)N[C@]5(C(=O)NS(=O)(=O)C6CC6)C[C@H]5/C=C\CCCCN(C)C(=O)[C@@H]4C3)cc(-c3nc(C(C)C)cs3)nc2c1C | rep papain-like protease |  |  | concentration not given, C111S mutant | baseline: positive control | activity | 15%
Cc1ccc(NC(=O)C2(c3ccc4c(c3)OC(F)(F)O4)CC2)nc1-c1cccc(C(=O)O)c1 | rep nsp12 RdRp | binding, biolayer interferometry |  | concentration not given |  | BLI response | 0 nm
O=C(NC1CCN(c2ncnc3[nH]cnc23)CC1)c1cccc(S(=O)(=O)N2CCCC2)c1 | rep nsp14 | enzyme activity | SARS-CoV-2 |  |  | Hill slope | 2.22

Some of these lines once more (single results of other studies):
SMILES | target | test | test system | setting | how to read | endpoint | result
Cc1ccc(NC(=O)C2(c3ccc4c(c3)OC(F)(F)O4)CC2)nc1-c1cccc(C(=O)O)c1 | rep nsp12 RdRp | binding, biolayer interferometry |  | concentration not given |  | BLI response | 0 nm
O=C(NC1CCN(c2ncnc3[nH]cnc23)CC1)c1cccc(S(=O)(=O)N2CCCC2)c1 | rep nsp14 | enzyme activity | SARS-CoV-2 |  |  | Hill slope | 2.22
